Experimental data collected from several papers.
Parts stem from different laboratories: compare values within a part only. Positions count from the first letter of the parent shown.

Series 1 — method: DHFR PCA, deep sequencing; matrix: yeast; added: (+)-ABA 0.39 µM; baseline: wild-type fitted maximum; reading: higher = stronger binding
Target: ABI1, truncated, D143A, DHFR fusion (Arabidopsis thaliana)
Notes: methotrexate growth selection, single substitutions
Starting sequence: PYL1, truncated, DHFR fusion (Arabidopsis thaliana); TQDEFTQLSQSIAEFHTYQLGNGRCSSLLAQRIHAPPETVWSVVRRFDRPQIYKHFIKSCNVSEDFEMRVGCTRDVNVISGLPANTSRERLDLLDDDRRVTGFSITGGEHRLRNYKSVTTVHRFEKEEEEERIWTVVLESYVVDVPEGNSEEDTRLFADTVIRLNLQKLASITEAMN
Change	relative binding score [%]
S171P	9.01
W134D	33.6
E129I	22.4
T1N	47.8
Q31D	-4.49
S117Y	7.14
G71I	-13.7
G102N	-7.01
G23A	8.96
T106V	83.5
D3F	40.4
I162L	0.313
P36I	-6.33
G102Y	-7.14
G71P	1.09
R132A	67.9

Series 2 — method: RNA Bind-n-Seq; form: RNA; matrix: in vitro; concentration: 365 nM; baseline: no-protein control; reading: higher = stronger binding
Target: RNA binding protein fox-1 homolog 2, RRM domain, GST-SBP tag (RBFOX2, Homo sapiens, UniProt O43251-10, residues 100-194)
Notes: natural RNA segment, single round, ends assumed
Residues (chain): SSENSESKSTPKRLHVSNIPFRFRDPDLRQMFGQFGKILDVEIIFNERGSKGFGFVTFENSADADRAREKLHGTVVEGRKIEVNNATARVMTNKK
Strand	RBNS enrichment (R)
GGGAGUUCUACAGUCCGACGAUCCUGUCAUCAGCCAGUGCUAACACCGGGCCAAUAAGAAUAUAACACCAAAUAACUGCUGGCUAGUUGGGGCUUUGUUUUGGUCUAGUGAAUAAAUACUGGUGUAUCCCCUGUGGAAUUCUCGGGUGCCAA	0.282
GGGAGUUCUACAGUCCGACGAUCAUCCUGGUGGGUCUUGCCUGUGACAGCAGACCCUCCAAACCUAAGAGCCACCAGCACUUCAGAGCCAGCCCUCAGCCCGGGUGGCCUGGAGAGGGCCAGUGCUGCCACUGUGGAAUUCUCGGGUGCCAA	0.965
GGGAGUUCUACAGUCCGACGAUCAAUGCUUGUUUUUUUAUCCCUGUUGAGUUUUUUUAAUUAAACGACACAAAACUACUACAUUGCCGAUUUUCUUUCAUGGGUUGCAUUGUGUAGUCCUUUUGUCUAGCUGUUGGAAUUCUCGGGUGCCAA	0.53
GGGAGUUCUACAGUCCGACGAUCUCUAUUCCCCAGUGAACUGAGGUUUUUACCGAUUUAUAGAGCAGUCAAAUCCGAAGUGCUCGAGUGCUUAGAAACCCCCUCUGGUGCUUGGUUGAACAAGGGAAUCACAAUGGAAUUCUCGGGUGCCAA	0.269
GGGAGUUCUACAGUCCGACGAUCUCAAUAUUUUAUUCAAACUCUGUUGAGGCAUUUUACUAACCUUAUACCCUUUUUGGCCUGAAGACAUUUUAGAAUUUCCUAACAGAGUUUACUGUUGUUUAGAAAUUUGCUGGAAUUCUCGGGUGCCAA	0.544
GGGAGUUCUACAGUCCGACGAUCUGUGACACUCAGGCCUCAGAUGAGCCUCGCUUGCCUUCACUGCUUCUGUUUUAAACAGUAGUAAAAAACUGGCGUUCAAGGCAGAGUCCACAGGUGCUUAAAGGACACUUUGGAAUUCUCGGGUGCCAA	0.473
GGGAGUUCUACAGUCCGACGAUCUCGCACAUCUCUCCUGUCUGUUAGUAGUAAGAAUACAGGGAAAUGUCUUCAGCCCCACGUAGAUGCUGCUUAAGAUGAGCGUUUCAAUUGCAUCAUCACUGACCUGUUAGUGGAAUUCUCGGGUGCCAA	0.651
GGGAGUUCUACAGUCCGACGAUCGUGUGUGUGAGAGUGAGUGAGUGUGCGUGCGUGCGUGCUUGUAUGUAUGUUUGUAUAUGUAGGACAAUAAGUUCCUUCUGACACAAGGGAGACACGAGAAGGAUAGCCUGUGGAAUUCUCGGGUGCCAA	12.3
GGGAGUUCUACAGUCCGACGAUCUUCUCUAAUUUCUCUGUUCAGAGCCCCAGCAGACCUUAUUACUGGGGUAAGGCAAGUCUGUUGACUGGUGUCCCUCACCUCGCUUCCCUAAUCUACAUUCAGGAGACCGAUGGAAUUCUCGGGUGCCAA	0.306
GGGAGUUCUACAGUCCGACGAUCCCAGUUGUAGCAGGUUUCACUAUUCCUAUGCUGGGGUACACAGUGAGAGUACUCACUUUUCACUUGUCUUGCUCUUAGAUUGGGCCAUGGCUUUCAUCCUGUGUCCCCUGUGGAAUUCUCGGGUGCCAA	0.288
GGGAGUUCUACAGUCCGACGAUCAAAAAAAAAAAGUCAUUUUAGCUGCCACCUAUGACUUUGCCACAUAGCUGAACUGUGUUUACUGGAAAAAUUCAGAGGCCUAAAGUUUAAAAUAAAAUUUACUUCCGACGUGGAAUUCUCGGGUGCCAA	0.604
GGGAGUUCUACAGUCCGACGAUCCAUUCUGGCCUGGUGUGUCUGAAAGUUGCAUCAGUCCUCACGGUGCAAACACAGUUGAUUUAGGAAGUCACACAAUGACACUGAAAUCCUACAGACCAAAAUCCACUUGUUGGAAUUCUCGGGUGCCAA	0.221

Series 3 — method: EMSA with sequencing; form: double-stranded DNA, one strand shown; matrix: in vitro; concentration: 10 and 20 nM; baseline: negative control set to 0; reading: higher = stronger binding
Target: Hepatocyte nuclear factor 3-alpha (Foxa1, Mus musculus, UniProt P35582, residues 1-468, full length assumed)
UniProt P35582, sequence (whole entry, looked up): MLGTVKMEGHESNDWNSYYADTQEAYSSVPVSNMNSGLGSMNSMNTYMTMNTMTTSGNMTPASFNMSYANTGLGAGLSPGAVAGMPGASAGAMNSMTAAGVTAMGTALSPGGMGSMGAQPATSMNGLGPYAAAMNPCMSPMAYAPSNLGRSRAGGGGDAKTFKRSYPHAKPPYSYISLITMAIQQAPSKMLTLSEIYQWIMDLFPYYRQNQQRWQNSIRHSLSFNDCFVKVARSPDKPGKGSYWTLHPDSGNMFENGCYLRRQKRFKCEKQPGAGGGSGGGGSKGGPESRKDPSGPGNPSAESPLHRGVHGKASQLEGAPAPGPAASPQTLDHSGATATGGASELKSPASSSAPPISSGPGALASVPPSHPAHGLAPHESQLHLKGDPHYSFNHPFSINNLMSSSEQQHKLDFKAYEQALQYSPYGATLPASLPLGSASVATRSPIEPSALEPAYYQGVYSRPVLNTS
Notes: whole designed probe, mean of two concentrations, ends assumed
Strand	normalised bound fraction
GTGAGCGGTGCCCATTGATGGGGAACAAATTGGTAATGACCATATTATCTGCTGGAAGCTTGGGAAGGAAAAGGGAAGTTGATTTGCTGATTTCTTACAATGAGTCAGTGATGTTATTATATTTACATATGACTAATTTAATTCTCAAAAATGCTGAGAAAATTAGACATTATCTTCATTTAACAGATGGGGAATATGATATGCAGTTACTAATGGCAGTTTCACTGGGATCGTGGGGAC	0.342 ratio
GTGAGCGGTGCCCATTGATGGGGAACTTTTCATTTACTCTTGTTTTGTGTTTGAGTATAGACAGCTTTTCCCATCCTCCATCAGGGTCATTGTCCCACCTTCTCTGACTCACTTATTGTGTCATCTGAATTAAAAGAGCAGCCGGTGGACGTGTGTAGAGGCTGAAGGAGAGCTGTGTTGCTAGCTTTGTATTTGAACGGTTCGTACACAAACAGTTCTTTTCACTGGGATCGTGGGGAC	0.101 ratio
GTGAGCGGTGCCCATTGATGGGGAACTTAAGTTGGCAAAATTTAGGAAGCCAGATGATGCCAGATTTTGGCAGGACTTTGAGGATATTGGAACCATTACAGGTTCCTAACACTCAGCAATGTTTGCATAGGTTATGAGAGAACATGTAAGGAATTGTTTATTAAGGCATTATTTGAAGTGGCAATGAGTTGGAGGACATTCGCAAATCCATCACTGAGATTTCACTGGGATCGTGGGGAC	0.441 ratio
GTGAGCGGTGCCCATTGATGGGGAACCTGGCCCTCACCTCAGTTGCTCCTATATTCACCACAGCCTTAGGGACACCCTTGATTCTTTCCGTTCATTAAGAAAAAGGTATAATTGTTCTTGTTTACTTATCTTCTGAAAAACATTAAAGAGTTTTTTTTTTAAAATAAACAAACCCAAAAACTAGCCTACAAAACACCTCAAAAACATTATGAAGCCTTTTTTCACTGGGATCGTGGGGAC	0.466 ratio
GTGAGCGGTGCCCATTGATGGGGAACCTGTGTGATGTGGTAATCTAAATTTGAACAGATGCCCCGCATGTTATGTCAATATTTGAATTGCTATTATGGCTATGAATCAATATTTCTTTGTAATCTTCCTTATTTCAAGTGGCTTGAATCACAGCCCTATGGTTAAATACACAGACTGTAGTTTAACTGCCTGATTTCATAACCCAACTCCAGCATTCACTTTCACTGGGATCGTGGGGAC	0.406 ratio
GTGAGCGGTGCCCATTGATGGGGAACTTTTTTCTGTACAGGGAAAAATAGTGAATATTTCAAAATTGTGAAACAAAGAGTCTCTGTGGCAACTACTCATTGTTGCATAACAGACAATATGCAAACAAATGAGTGTGTCTGTGTTCCAATAAAACTGTATTTACAAAAGCAGAAGGCCACCCATGTGCCAATGTCCAAAGTTTCTCAACCAACCCCTGGTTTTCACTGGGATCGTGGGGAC	0.437 ratio
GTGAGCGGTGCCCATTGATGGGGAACTGTTCCAGCAGGTTGATGGAGCATAGGGGCTTCAAAGGAACCGGTGATGCAGTCATGCTGTGGCTGGAGTTTACGAAAGGCTGACTCACCAAAGGTCATCTGAGACATTTACACAAACATCCTGACCCCAAGTCCAGTGCTCTTTCTAATCTATAACAGGGTTCTTCCTTTTTTTCTTTTTCTTTCACTTTTTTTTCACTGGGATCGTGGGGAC	0.00443 ratio
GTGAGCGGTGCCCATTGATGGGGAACACAGGATATGTTCAGTGAGTAAGGGCTGCTGTTGTTAATAGAAGCCACCTTTGGATCCCCAGTACCTAACAGTACTTGAATGTATATACGTGCATGTTTACATTAAGTGTATCTGTCTATACCTAGGCCTGTGTCCACGTCCATATCCATATCTATCGTTTTGCATCTAGCAAGTTTTTTGAAAGAGGGACTATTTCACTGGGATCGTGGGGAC	0.353 ratio

Series 4 — target: CCNB3, cyclin fold, Cln2 fusion (human); method: yeast growth competition, sequencing; matrix: yeast; notes: weak parent motif; baseline: not given; reading: higher = stronger binding
Starting sequence: ORC1 docking peptide (human); PRARKRLELGNLG
Change	normalised enrichment score
PRARKRLELGNHG [L12H]	0.418
PRARKRLELGNLM [G13M]	0.52
PRARKRLELGNLI [G13I]	0.253
PRARKRLELGNLH [G13H]	0.311
PRARKRLELGHLG [N11H]	0.195
PRARKRLELGNFG [L12F]	0.156
PRARKRLELGNLN [G13N]	0.135
DRARKRLELGNLG [P1D]	0.551
PRARKRLELGNLR [G13R]	0.329
PRYRKRLELGNLG [A3Y]	0.652
PRARKTLELGNLG [R6T]	0.325
PRARKRLELGFLG [N11F]	0.413
PRARKRYELGNLG [L7Y]	0.0806
PRERKRLELGNLG [A3E]	0.201
PRARKRLLLGNLG [E8L]	0.381

Series 5 — method: RNAcompete; form: RNA; matrix: in vitro; concentration: 20 nM; notes: 7-mer, probes averaged, single round; baseline: mean of 7-mers; reading: higher = stronger binding
Target: PABPC1L2, full length, GST fusion (mouse, UniProt A0ABA7IW68)
Target sequence (chain): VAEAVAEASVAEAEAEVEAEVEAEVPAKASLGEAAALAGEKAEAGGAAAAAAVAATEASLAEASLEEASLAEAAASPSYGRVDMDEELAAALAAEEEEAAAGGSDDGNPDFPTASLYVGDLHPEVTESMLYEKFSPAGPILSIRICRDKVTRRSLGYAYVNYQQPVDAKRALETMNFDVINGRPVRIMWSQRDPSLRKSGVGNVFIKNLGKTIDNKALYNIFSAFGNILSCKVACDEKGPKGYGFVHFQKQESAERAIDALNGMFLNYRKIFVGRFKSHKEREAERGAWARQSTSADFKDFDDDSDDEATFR
Strand	7-mer Z-score
CCAACAC	-0.242
GUAACAA	0.178
CUCCCCA	-0.242
GCGAUCA	-0.0989
AUUAGAA	0.418
GUGCACU	-0.257
UUGGUCG	-0.307
AAGCGCU	0.00979
GUCCACU	-0.324
CGUAACC	-0.354
CGCGUGU	-0.389
CUUGGCA	0.0334
UUGAAUU	-0.267
UCACACC	-0.394
GGGUCGC	-0.0573
CAACAAG	0.0424
UGAUGUU	-0.405

Single results of other studies — method: cross-linking MS; matrix: cell fractions; added: DSSO
Molecule	partner	cross-linked residues
GAPDH (Homo sapiens, UniProt P04406)	PHB2 (Homo sapiens, UniProt Q99623)	K263 to K296
SMARCA5 (Homo sapiens, UniProt O60264)	EHD3 (Homo sapiens, UniProt Q9NZN3)	K397 to K486
